Published values pooled from the literature.
Numbered parts are unrelated; each lists some results of a single study.
UniProt P11229, sequence (whole entry, looked up): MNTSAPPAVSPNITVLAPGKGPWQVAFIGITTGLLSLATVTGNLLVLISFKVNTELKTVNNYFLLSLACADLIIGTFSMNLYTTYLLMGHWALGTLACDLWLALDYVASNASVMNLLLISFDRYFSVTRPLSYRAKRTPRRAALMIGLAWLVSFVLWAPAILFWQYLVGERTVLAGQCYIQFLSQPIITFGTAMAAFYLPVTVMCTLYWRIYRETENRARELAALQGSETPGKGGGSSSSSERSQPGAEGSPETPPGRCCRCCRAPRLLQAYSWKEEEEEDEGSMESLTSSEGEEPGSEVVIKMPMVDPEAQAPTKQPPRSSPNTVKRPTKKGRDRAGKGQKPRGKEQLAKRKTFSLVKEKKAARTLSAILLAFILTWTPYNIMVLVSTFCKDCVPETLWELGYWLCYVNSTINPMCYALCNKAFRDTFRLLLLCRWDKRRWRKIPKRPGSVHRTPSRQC

Series 1 — medium: plasma
SMILES: O=C1CCC(N2Cc3cc(C4CCN(Cc5ccccc5)CC4)ccc3C2=O)C(=O)N1 (stereo not shown)
It gave 0.00114 µg/mL for concentration (male Sprague-Dawley rat; intravenous, 1 mg/kg, 24 h).
For male Sprague-Dawley rat; intravenous, 1 mg/kg, 4.98 min: concentration read 0.112 µg/mL.
male Sprague-Dawley rat; intravenous, 1 mg/kg, 8 h — concentration: 0.00765 µg/mL.
The concentration was 0.0212 µg/mL (male CD-1 mouse; intravenous, 1 mg/kg, 4 h).
The concentration was 0.0874 µg/mL (male CD-1 mouse; intravenous, 1 mg/kg, 1 h).
The concentration was 0.0556 µg/mL (male Sprague-Dawley rat; oral, 3 mg/kg, 1 h).
male Sprague-Dawley rat; intravenous, 1 mg/kg, 15 min — concentration: 0.109 µg/mL.
It gave 0.273 µg/mL for concentration (male CD-1 mouse; oral, 3 mg/kg, 30 min).

Series 2 — organism: Sarcocystis neurona; effect on: parasite growth; tested at: 10 µM; time: 96 h; notes: first screen
`CCOC(=O)[C@@]1(CCCCCCOc2ccc(Cl)cc2)CO1` has an inhibition of -19%.
For `O=[N+]([O-])c1cccc2cn[nH]c12`, the inhibition was 1.9%.
The inhibition of `CCCCN1CCCC1CNC(=O)c1cc(C#N)c2ccccc2c1OC` (stereo not shown) is reported as 17.1%.
With `Cc1ncc([N+](=O)[O-])n1CCO` the inhibition was -0.0223%.
For `CCN(CC)CCNC(=O)c1ccc(N)cc1`, the inhibition was -6.9%.
For `CCOC(=O)[C@H](CCc1ccccc1)N[C@H]1CCc2ccccc2N(CC(=O)O)C1=O`, the inhibition was -16.5%.
With `C#C[C@]1(O)CC[C@H]2[C@@H]3[C@H](C)CC4=C(CCC(=O)C4)[C@H]3CC[C@@]21C` the inhibition was 9.3%.
`CN(C)CCc1c[nH]c2ccc(C[C@H]3COC(=O)N3)cc12` has an inhibition of 4%.

Series 3 — mode: agonist
Target: Beta-1 adrenergic receptor (ADRB1, Homo sapiens, UniProt P08588)
UniProt P08588, sequence (whole entry, looked up): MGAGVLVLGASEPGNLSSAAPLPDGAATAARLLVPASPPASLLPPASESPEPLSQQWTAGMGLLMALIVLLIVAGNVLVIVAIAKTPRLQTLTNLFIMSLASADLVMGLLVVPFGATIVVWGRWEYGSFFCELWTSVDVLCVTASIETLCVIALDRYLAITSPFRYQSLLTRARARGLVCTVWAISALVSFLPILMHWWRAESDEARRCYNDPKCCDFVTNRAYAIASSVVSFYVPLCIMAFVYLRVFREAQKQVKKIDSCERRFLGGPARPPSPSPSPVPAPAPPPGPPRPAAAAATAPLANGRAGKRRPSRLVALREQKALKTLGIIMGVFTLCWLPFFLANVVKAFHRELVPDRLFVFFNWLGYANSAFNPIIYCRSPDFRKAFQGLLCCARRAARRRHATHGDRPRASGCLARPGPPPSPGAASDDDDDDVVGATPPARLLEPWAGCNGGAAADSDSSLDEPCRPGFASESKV
For `N#Cc1cc2c(OCC(O)CN3CCN(C(c4ccccc4)c4ccccc4)CC3)cccc2[nH]1` (stereo not shown), the EC50 was 7.43 µM.
`CC(=O)N[S+](=O)([O-])c1ccc(NC(=O)c2cc(-c3ccccc3)nc3ccccc23)cc1` gave an EC50 of ≥ 100 µM.
With `C#CCNC(=O)[C@@H]1Cc2cn(CC#CC)c3cccc(c23)[C@H](CC(C)C)N1` the EC50 was ≥ 100 µM.
For `Cc1nn(C)c2nc(NCCCC3CCOC3)sc12` (stereo not shown), the EC50 was ≥ 100 µM.
`OC(c1ccccc1)c1nc(Nc2ccc(N3CCOCC3)cc2)n[nH]1` (stereo not shown) gave an EC50 of ≥ 100 µM.
With `CN1Cc2ccc(N3CCOCC3)nc2C(C)(C(=O)NCCCn2ccnc2)C1` (stereo not shown) the EC50 was ≥ 100 µM.
`Cc1noc2c(-c3ccc(N4CCOCC4)cc3)cc(-c3cccs3)nc12` gave an EC50 of ≥ 100 µM.
With `COc1ccccc1N1CCN(CC(=O)Nc2cc(C)ccc2C)CC1` the EC50 was ≥ 100 µM.

Other studies, line by line
The inhibition of `COCCc1ccc(-c2c(C)nc3c(N4CCOCC4)ccnn23)cn1` is reported as 2.83% (Muscarinic acetylcholine receptor M1 (CHRM1, Homo sapiens, UniProt P11229); binding, radioligand binding; 10 µM).
